Measurements gathered from unrelated publications.
Every numbered part comes from another study and shows a few of its results, in no order. Changes are numbered by the printed parent chain.

Block 1 — target: CCNB1, cyclin fold, Cln2 fusion (human); technique: yeast growth competition, sequencing; sample: yeast; setting: weak parent motif; baseline: not given; direction: higher = stronger binding
Starting sequence: SLBP docking peptide (human); ARYKRKLLINDFG
For `G13S`, “normalised enrichment score” read -0.13.
For `A1Q`, “normalised enrichment score” read -0.195.
`R2Q` — result for “normalised enrichment score”: 1.43.
`G13C`: “normalised enrichment score” 0.65.
`L7C` — result for “normalised enrichment score”: 1.08.

Block 2 — technique: protein binding microarray; form: double-stranded DNA, one strand shown; sample: in vitro; tested at: not given; baseline: not given; direction: higher = stronger binding
Target: Histone acetyltransferase KAT6A, both winged helices, GST fusion (KAT6A, Homo sapiens, UniProt Q92794, residues 1-181)
Setting: 8-mer, flanks averaged, mean of 2 arrays, mostly near background
Target sequence (chain): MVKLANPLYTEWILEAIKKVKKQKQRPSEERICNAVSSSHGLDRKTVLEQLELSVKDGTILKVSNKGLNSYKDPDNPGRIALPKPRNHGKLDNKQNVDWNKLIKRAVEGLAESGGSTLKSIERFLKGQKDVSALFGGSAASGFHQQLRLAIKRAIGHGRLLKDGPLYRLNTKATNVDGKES
The E-score of `ACCGAAGC` is reported as 0.0466.
`AGATTTTG` gave an E-score of -0.128.
`ATTAAGGG` gave an E-score of -0.169.
`GCATGGGA` has an E-score of -0.0835.
`GGGGCCAA` has an E-score of -0.0576.
`ACTAGAAG` has an E-score of -0.127.
For `ATCGTGCC`, the E-score was 0.0821.

Block 3 — technique: RNA Bind-n-Seq; form: RNA; sample: in vitro; tested at: 365 nM; baseline: no-protein control; direction: higher = stronger binding
Target: RNA binding protein fox-1 homolog 2, RRM domain, GST-SBP tag (RBFOX2, Homo sapiens, UniProt O43251-10, residues 100-194)
Setting: natural RNA segment, single round, ends assumed
Constant ends, left off below: GGGAGUUCUACAGUCCGACGAUC … UGGAAUUCUCGGGUGCCAA
Construct (chain): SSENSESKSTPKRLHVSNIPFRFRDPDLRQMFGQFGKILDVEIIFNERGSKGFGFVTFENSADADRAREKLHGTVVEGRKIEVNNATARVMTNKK
`UGGGGAAAAAAAUGUUCUCGACUGAUACUUGUAUAUCGGGUGCAUUUAAUGGCAGUCACAACUCUGAAACCUUUUGUUCGUGCCGGCUUCAGGUCAAUGUGUUUAUGUGA`: “RBNS enrichment (R)” 0.505.
`AAGCAGGCAGGAAAGAAAAUGUCUCAUCCUUUCUUGAAAGCAUUUGCAGAAAAUAUAUCAUUUCAUUUUAUUCCCAUCUGUUUUCAAACUCGUGAUCUUAAAAGGCAUUC` — result for “RBNS enrichment (R)”: 0.503.
`CUUCCAAGCUUUUGGAGUUUCUCUCGUAUCGUAUUUAAAGAUUCUGCCUUCCCUAGUAGUAGGGACUGACAGAAUACACUUAACACAAACCUCAAGCUUUACUGACUUCA`: “RBNS enrichment (R)” 0.273.
For `AUUUUGCAGCAGUACCAUCCCACUGAUAUCACGGGCCCGCUCAACCUCUCAGAUCCCUCGGUCAGCACCGUGGUGUGAGGCCCCCGGAGGCGCCCACCUGCCCAGUUAGC`, “RBNS enrichment (R)” read 0.217.
`UAGUGUCUCUGGCUAGGGCUUCACCUUUCGGUUUUUUGUUUUUUGUUUUUUCUGGUCCCUGAGUCUGGCAUUUCUGUCUGUGACUUAGCUAUGUUUCUGAUGCCAAUCAC`: “RBNS enrichment (R)” 5.85.
Under “RBNS enrichment (R)”, `GAAGAAAAUUAAUGUUUUAAUGUAAAUGUUUUUAAAACCAAGAUCACCAUAGAGUUCACACAAAAUUUUAGGCAGUGUUUCAAGAAGCACUCUUAUGUGUUGUUCUUUCA` is recorded as 0.92.
Under “RBNS enrichment (R)”, `AGUCAAGUCUCAGCUUUACCACUAACUAGCUGUGUGGCCUUGAGCAAAUACUAUUACUUCUCUGAGCCUCCGUUACGCCGUCUGUAAAAAGGGAGGUGAAAAUACCUACC` is recorded as 0.271.

Other studies, line by line
`PhoQ, residues 284 288 289 292 302 303 GNNTDL` gave a fold induction of 0.589 (PhoP, residues 12 14 15 18 19 NIMAP (Escherichia coli, UniProt P23836); Sort-seq, refers to: YFP reporter; E. coli; PhoQ-PhoP variant library, with: 10 µM Mg2+; baseline: high Mg2+ state, higher = stronger signaling).

Repeated from above (block 1):
`L7C` — result for “normalised enrichment score”: 1.08.
For `A1Q`, “normalised enrichment score” read -0.195.
`R2Q` — result for “normalised enrichment score”: 1.43.
